Experimental data gathered from unrelated publications.
Compare with care: the assays were run in different laboratories. Several values in a cell are separate wells, animals, samples, runs or records. Numbers after ± are the reported error.
UCHL1: Ubiquitin carboxyl-terminal hydrolase isozyme L1 (UCHL1, Homo sapiens, UniProt P09936)
UniProt P09936, sequence (whole entry, looked up): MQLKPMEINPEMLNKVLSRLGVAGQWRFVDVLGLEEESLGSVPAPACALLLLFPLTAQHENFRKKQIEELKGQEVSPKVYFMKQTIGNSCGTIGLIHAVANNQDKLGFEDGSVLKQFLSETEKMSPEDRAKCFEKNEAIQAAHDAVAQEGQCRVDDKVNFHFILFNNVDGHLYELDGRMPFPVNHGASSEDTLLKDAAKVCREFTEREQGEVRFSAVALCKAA

With `CCOC(=O)c1sc(=NN=C(C)c2c(O)c3ccccc3oc2=O)[nH]c1C` the selectivity index was > 15.6 (MCF7; cell growth, MTT; reference: IC50 BJ-1 over MCF7).
For `CC/C(=C(\c1ccccc1)c1ccc(OCCN(C)C)cc1)c1ccccc1`, “log2 fold change” read 1.31 (MCF7; RNA-seq, refers to: RAPGEFL1 mRNA; 1 µM, 24 h, E2-induced gene; reference: DMSO vehicle).
With `Cc1nc(NC(=O)N2CCC[C@H]2C(N)=O)sc1-c1ccnc(C(C)(C)C(F)(F)F)c1` the GR50 was 1620 nM (MCF7; resazurin growth rate inhibition; 72 h).
The growth percentage of `O=c1ccn(Cc2cn(-c3c4ccccc4nc4ccccc34)nn2)c(=O)[nH]1` is reported as 36.4% (MCF7; NCI60 single-dose screen; 10 µM).
For `CC[C@@H](C)[C@H](NC(=O)c1cc(Cl)ccc1OCCN)C(=O)Nc1ccc([N+](=O)[O-])cc1Cl`, antiproliferative activity read “inactive” (MCF7; up to 10 µM, 72 h).
`CCCCN1CCN(c2ccc3[nH]c(-c4ccc5[nH]c(-c6ccc(OCC)c(OCC)c6)nc5c4)nc3c2)CC1` gave a growth percent of -69.6% (MCF7; SRB; 10 µM, 48 h).
Under “TEAD reporter activity”, `C=CC(=O)c1cccnc1Nc1cc(NC(C)=O)ccc1OC` is recorded as 6.2 ± 1.2% (MCF7; firefly luciferase reporter; 100 µM, 6 h; reference: vehicle).
For `O=[N+]([O-])c1ccc(O)c(C=NNc2ccc(Br)cc2)c1`, the IL-6 level was 43% (MCF7; ELISA; culture supernatant; IC50, together with: LPS; reference: LPS alone).
`COc1ccc(C(F)(F)F)cc1Nc1ncccc1C(=O)O` — result for “TEAD reporter activity”: 81.3 ± 6% (MCF7; firefly luciferase reporter; 25 µM, 6 h; reference: vehicle).
For `O=C1Nc2c(C(F)(F)F)cccc2[C@@]1(c1ccc(O)cc1)N1CC(F)(F)C(F)(F)C1`, the selectivity ratio was ≥ 3500 (MCF7; cell viability, Alamar blue; 72 h; reference: IC50 ERα− lines over MCF7).
With `CCOC(=O)c1nn(-c2cccc(Cl)c2)/c(=N/N=C(\C)c2ccc(NC(=O)c3ccccc3)cc2)s1` the cytotoxicity was 97.5% (MCF7; MTT; 5 µM).
`C[C@@H]1CC[C@@H]([C@](C)(O)Cn2cnc3ccccc32)[C@H](OCc2ccccc2)C1` gave an IC50 of 7.02 µM (MCF7; cell growth, inhibitor, MTT; 72 h).
`CC(=O)c1nn(-c2ccccc2Cl)/c(=N/N=C(\C)c2ccc(NC(=O)c3ccccc3)cc2)s1` has a cytotoxicity of 90.4% (MCF7; MTT; 0.156 µM).
For `N#CC(=Cc1cccc(F)c1F)C(=O)NCc1ccccc1`, the labelling was 40% (UCHL1; covalent, intact protein LC-MS; 12.5 µM).
`CC(=O)c1nn(-c2ccc(C)cc2)/c(=N/N=C(\C)c2ccc(NC(=O)c3ccccc3)cc2)s1` gave a cytotoxicity of 95.6% (MCF7; MTT; 0.312 µM).
`C=CC(=O)c1cccnc1Nc1cc(C)ccc1OC`: “TEAD reporter activity” 94.7 ± 5.5% (MCF7; firefly luciferase reporter; 25 µM, 6 h; reference: vehicle).
`C#CC(C)(CC)NC(=O)C(C)n1nc([N+](=O)[O-])c(Br)c1C` (stereo not shown) has a labelling of 17.2% (UCHL1; covalent, intact protein LC-MS; 12.5 µM).
For `CC(=NN=c1scc(C)n1C)c1c(O)c2ccccc2oc1=O`, the selectivity index was > 2.87 (MCF7; cell growth, MTT; reference: IC50 BJ-1 over MCF7).
For `CC(=O)c1nn(-c2ccc(Cl)cc2)/c(=N/N=C(\C)c2ccc(NC(=O)c3ccccc3)cc2)s1`, the toxicity was 88.4% and 96.2% (MCF7; 0.625 µM).
`CSc1nc(-c2ccc(Cl)cc2)c2c(NC(=O)c3ccccc3)nnc-2[nH]1` gave a cell growth of 96.2% (MCF7; SRB; 10 µM, NCI60 single-dose screen; reference: untreated).
With `CCCCCCCC(=O)Nc1ncc(Cc2cccc(OCc3cn(CCOC)nn3)c2)s1` the inhibition was 11 ± 5% (MCF7; cell viability, MTS; 10 µM).
With `COc1ccc(-n2nc(C(C)=O)s/c2=N\N=C(/C)c2ccc(NC(=O)c3ccccc3)cc2)cc1` the toxicity was 11.4% (MCF7; 0.078 µM).
Under “TEAD reporter activity”, `C=CC(=O)c1cccnc1Nc1cc(C(F)(F)F)ccc1OC` is recorded as 25.5 ± 0.8% (MCF7; firefly luciferase reporter; 50 µM, 6 h; reference: vehicle).
`CC(=O)c1nn(-c2ccc(Cl)cc2)/c(=N/N=C(\C)c2ccc(NC(=O)c3ccc(Cl)cc3)cc2)s1` has a toxicity of 0.129% (MCF7; 0.312 µM).
`OCc1ccc(Nc2ccc3c(Nc4cccc(C(F)(F)F)c4)ncnc3c2)cc1`: “G0/G1 phase cells” 5% (MCF7; IC50, 24 h).
